# Published values gathered from unrelated publications.
# A part holds a random share of what one study measured.

# Block 1 — technique: RNA Bind-n-Seq; form: RNA; matrix: in vitro; tested at: 365 nM; reference: no-protein control; reading: higher = stronger binding
# Target: RNA binding protein fox-1 homolog 2, RRM domain, GST-SBP tag (RBFOX2, Homo sapiens, UniProt O43251-10, residues 100-194)
# Notes: natural RNA segment, single round, ends assumed
# Constant ends, left off below: GGGAGUUCUACAGUCCGACGAUC … UGGAAUUCUCGGGUGCCAA
# Residues (chain): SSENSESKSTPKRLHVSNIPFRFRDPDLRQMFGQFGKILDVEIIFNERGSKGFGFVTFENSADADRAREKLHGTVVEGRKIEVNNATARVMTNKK
Strand,RBNS enrichment (R)
AUUCCCUCCACAUGCUGCACGCGCAUCUCGCCCCCAGGGGCACUGCCUGGAAGAUUCAGGAGCCUGGGCGGCCUUCGCUUACUCUCACCUGCUUCUGAGUUGCCCAGGAG,3.39
AUCGCGCUCAGGACUUCACUGAAGAUUCACGUGCAAUUGAACGCUUCAUUAAACAAAAGAAAACCUCAGUCUGCUGUCUGGGAACCCGUGGAAAGAGCUGGAAGCGGGCG,0.899
AGUGACUCUCUGUCAGAACAAAUGCUGUGCAGGUGAUAAAGCUAUGUAUUGGAAGUCAGAUUUCUAGUAGGAAAUGUGGUCAAAUCCCUGUUGGUGAACAAAUGGCCUUU,0.346
CUACCUGGUGGGCUGGUUGAGGAUGGGAGAGAGUUGGCUGUGUGCCAUGUUCAGAUGUAUGGUGGAUGUUACUGUCACAAUAAAGUUCAAAGUGGCCAGUGCCCAUCAGA,1.04
GGGAGAGCACAGGACUGGCCCUGCUCUGCGGCCUCCUUUGUCCCAUAACCUGAAGUUAAGUCACAUCCCCUGUCGGGACCUCCGUGCACUCAUCUGUCAAGUGGGGGCGC,0.245
AAAAAAAAACACCUACUUUUAAAGAAAAUACCUAACAGAUUUUUAAUAUAGUUAUCUCUACCACUUUCUUUUCUAGUUUCUUGAUUUUCAGCUCAGGCUGCAUUCUAACU,0.515
CAAGACGCUAGACAUUCCAGAAUUAUUUUCCUUGGCCAUCCAAGUGAAGUAGAAGUAGAUUGUUGGAUUGCAAAGAAAAUGAUAAAGAUUCCCUAAAGGAAUUUAUAAGC,0.49
GGGCAGCCCCAAGCCUCCUGGGGAGGCAGGGCAAAAACAGGUGCCCUCAUCGUGGUCUGUGCCAUGUCCCGUCUCUAUGGUGGUUGAGGAGAAAGGCGGGGAAGCUUCCU,0.546

# Block 2 — technique: RNA Bind-n-Seq; form: RNA; matrix: in vitro; tested at: 100 nM; reference: input RNA pool; reading: higher = stronger binding
# Target: RING finger protein unkempt homolog, zinc fingers 1-6, SBP tag (UNK, Homo sapiens, UniProt Q9C0B0, residues 30-357)
# Sequence of UniProt Q9C0B0 (30-357, looked up): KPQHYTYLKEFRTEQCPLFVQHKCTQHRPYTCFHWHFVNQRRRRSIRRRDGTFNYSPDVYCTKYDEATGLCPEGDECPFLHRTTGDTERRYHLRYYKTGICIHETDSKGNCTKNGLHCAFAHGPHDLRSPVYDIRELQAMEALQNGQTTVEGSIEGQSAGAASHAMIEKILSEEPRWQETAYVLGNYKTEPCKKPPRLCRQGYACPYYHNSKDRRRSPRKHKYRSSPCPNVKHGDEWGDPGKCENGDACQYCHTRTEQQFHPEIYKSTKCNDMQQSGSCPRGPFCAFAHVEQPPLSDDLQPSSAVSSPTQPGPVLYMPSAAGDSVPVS
# Notes: RNA with constant flanks, vertebrate orthologous sites, ends assumed
# Constant ends, left off below: GGGAGUUCUACAGUCCGACGAUC … CAACAGAGGAUUGAGCAUCA
Strand,bound/input enrichment
GAUCUGGACCUUGGAGCCGAACCAGAGAGCUAGCAAAAGUAAGGCAGACUUGUAAAAUUAUAGCCAUGUACAGCUGCACAACAACAGUCCUACCACUAGCAGCUGCAUUAAAGUAUUUAU,0.588 ratio
AUUCAAACCUGUGGUACCUUGGCCCCACGUGGAAGGGGUAGAAGUGGACUUGGAGUCUAUUAGAAGAAAAAACAAAGCCAAAAAUGACCAAGAGCAUCAGGCUGGAGGUGUCAAUCAGCA,0.412 ratio
CAUCUCUCAUUUUAUAUGUCCAGAAAUGGCUUUGAAUUUUAAGCAAUUACUAGUUUUAAUUAGCUCUGCCCUCAUGAAGUAUUAUUAUAAUUCACCAUAAACAGCUAUCUGUCUGAAUUA,1.12 ratio
GUCAUCUGAUUGGAUGAAGACCAUCCCGAGUUACAACCAAACAAAUAGCUCCAUGGACUUUAGAAAUUAUAUGAUGAGAGAUGAGAAUCUGGAACCACUGCCCAAAAACUGGGAAAUGGC,0.704 ratio
CCUAAAGCUUUGUGUUUGGCUGCACCUGCAUAAGCUGCUACAAAUAGAAUAAAGAAUUCAUAGCCUGUAUCUAUCAUUUAGAUGCAUGGAAAAAUGGGCUUUGCACACAAUGGGUUUGAA,1.84 ratio
AACCUAAAAUUAUACCAAAAGAGCCAAGCAGUAGCAUUGUUUUUUUUGUAAAUGUAAAAAUAGAUCCAGACUUUGUUUCCUUAUUCAAUUUUAAAAAUAAAAAAUACCUCAGUGCUGUUU,0.398 ratio
GUGUUGUUUGGUACAGGACCUCCUCUGUACUCCUUUGUGGUUAUAAAGCAAUUAGCAAAACGGCUUACAUUUGUAUUUAUUUUCUAUUCCAUACUUUGCCCUGCCUCAUGUUUUUUGUUU,0.59 ratio
GCAGUGAAAAAGCAGCCCUUCUCCCAGCCCCUUUUUCACUAGGAGAUACAAACGUUACCAUAGAAGAGCAAUUAAACUCAAUAAAUUUAUCUUUUCAGGAUGAUCCAGACUCCAGUACCA,1.5 ratio

# Block 3 — technique: protein-binding microarray; form: double-stranded DNA, one strand shown; matrix: in vitro; tested at: 250 nM; notes: 60-bp whole probe; with: salmon DNA 0.4 mg/ml; reference: random background probes; reading: higher = stronger binding; constant ends, left off below: GCCTAGCAC … GTCTTGATTCGCTTGACGCTGCTG
# Target: Interferon regulatory factor 5, full length, phosphomimetic (IRF5, Homo sapiens, UniProt Q13568-2, residues 1-514, K96S/S451D/S453D/S456D/S462D)
Strand,log fluorescence
GAACATATTTGTTTCCATTTGTGCTAG,1.35 z-score
TACTCTTGTGACTATGGACCGTGCTAG,0.202 z-score
TTAGGCTTCGGTTCCGGTTAGTGCTAG,1.76 z-score
TTAGGTTTCGACTATCAGTTAGTGCTA,8.36 z-score
GACGCACTGGACACTGGGGACGTGCTA,-0.736 z-score
TTGGGTATCGGTATCGGTTAGTGCTAG,9.24 z-score
GACGATATTGGGTATCGAGACGTGCTA,1.32 z-score
GAAGGTATCGACACTGGGGACGTGCTA,1.44 z-score
GAGACTTTGCTCTGTGCATAGGTGCTA,-0.18 z-score
TCATCTCTCTGTGACACACTGTGCTAG,0.325 z-score
TTAGGTTCCGGTTCCGGTTAGTGCTAG,2.62 z-score
GACGATCTCAGTCTCGCGACGTGCTAG,-0.336 z-score
CTCTGGGGAGATCAGCGCATGTGCTAG,-0.879 z-score
GACGGACTGCTTCTTCTGACGTGCTAG,-0.427 z-score
TTTCCTCTGTCATTTTCTCTGTGCTAG,3.03 z-score
TCTATAATGGATATATATCAGTGCTAG,0.667 z-score
GACGGTATCGGTATCGGAACGTGCTAG,7.47 z-score
GACGCTATCGGTCTCGGGACGTGCTAG,6 z-score
GGGGGAAATGGGAAACCCGGGGTGCTA,0.312 z-score

# Block 4 — technique: protein binding microarray; form: double-stranded DNA, one strand shown; matrix: in vitro; tested at: not given; reference: not given; reading: higher = stronger binding
# Target: Histone acetyltransferase KAT6A, winged helix 1, GST fusion (KAT6A, Homo sapiens, UniProt Q92794, residues 1-85)
# Notes: 8-mer, flanks averaged, mean of 2 arrays, mostly near background
# Target sequence (chain): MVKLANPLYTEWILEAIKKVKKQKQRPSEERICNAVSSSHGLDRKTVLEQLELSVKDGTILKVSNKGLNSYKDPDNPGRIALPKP
Strand,E-score
AAAAGTGT,-0.14
CGCGGGAC,0.379
CATCCGAC,0.0259
GACGTCAC,0.0272
ACGTGGCT,-0.179
GCTTTGAC,0.018
CAATGACG,0.00851
ATATATCG,-0.0662
CCTGATCA,-0.238
AAACTTGG,-0.0075
GCAGTTAC,0.0904
GGGTAAAC,-0.0429
CCAGCACG,0.0415
CCAGTGAA,-0.145
GCGTATTA,0.124
CGGTCTAG,0.0525
TAAATCTA,-0.0824
AAGGGTAG,-0.0039
AAGGCTGA,-0.224
ACGTTGGA,-0.216
CGAGGGGA,0.0449
CCTGATTA,-0.114
AGATCAAC,-0.193
CTTCGCGA,0.0784
GTTGCAAC,-0.0699

# Repeated from above (block 4):
Strand,E-score
CCTGATTA,-0.114
AAGGCTGA,-0.224
TAAATCTA,-0.0824
GACGTCAC,0.0272
GTTGCAAC,-0.0699
CGAGGGGA,0.0449
CAATGACG,0.00851
CTTCGCGA,0.0784
